Results gathered from unrelated publications.
Protocols differ between the studies behind these lines. Several values in a cell are separate wells, animals, samples, runs or records.
INSR: Insulin receptor (INSR, Homo sapiens, UniProt P06213)
Sequence of UniProt P06213 (whole entry, unmodified, looked up): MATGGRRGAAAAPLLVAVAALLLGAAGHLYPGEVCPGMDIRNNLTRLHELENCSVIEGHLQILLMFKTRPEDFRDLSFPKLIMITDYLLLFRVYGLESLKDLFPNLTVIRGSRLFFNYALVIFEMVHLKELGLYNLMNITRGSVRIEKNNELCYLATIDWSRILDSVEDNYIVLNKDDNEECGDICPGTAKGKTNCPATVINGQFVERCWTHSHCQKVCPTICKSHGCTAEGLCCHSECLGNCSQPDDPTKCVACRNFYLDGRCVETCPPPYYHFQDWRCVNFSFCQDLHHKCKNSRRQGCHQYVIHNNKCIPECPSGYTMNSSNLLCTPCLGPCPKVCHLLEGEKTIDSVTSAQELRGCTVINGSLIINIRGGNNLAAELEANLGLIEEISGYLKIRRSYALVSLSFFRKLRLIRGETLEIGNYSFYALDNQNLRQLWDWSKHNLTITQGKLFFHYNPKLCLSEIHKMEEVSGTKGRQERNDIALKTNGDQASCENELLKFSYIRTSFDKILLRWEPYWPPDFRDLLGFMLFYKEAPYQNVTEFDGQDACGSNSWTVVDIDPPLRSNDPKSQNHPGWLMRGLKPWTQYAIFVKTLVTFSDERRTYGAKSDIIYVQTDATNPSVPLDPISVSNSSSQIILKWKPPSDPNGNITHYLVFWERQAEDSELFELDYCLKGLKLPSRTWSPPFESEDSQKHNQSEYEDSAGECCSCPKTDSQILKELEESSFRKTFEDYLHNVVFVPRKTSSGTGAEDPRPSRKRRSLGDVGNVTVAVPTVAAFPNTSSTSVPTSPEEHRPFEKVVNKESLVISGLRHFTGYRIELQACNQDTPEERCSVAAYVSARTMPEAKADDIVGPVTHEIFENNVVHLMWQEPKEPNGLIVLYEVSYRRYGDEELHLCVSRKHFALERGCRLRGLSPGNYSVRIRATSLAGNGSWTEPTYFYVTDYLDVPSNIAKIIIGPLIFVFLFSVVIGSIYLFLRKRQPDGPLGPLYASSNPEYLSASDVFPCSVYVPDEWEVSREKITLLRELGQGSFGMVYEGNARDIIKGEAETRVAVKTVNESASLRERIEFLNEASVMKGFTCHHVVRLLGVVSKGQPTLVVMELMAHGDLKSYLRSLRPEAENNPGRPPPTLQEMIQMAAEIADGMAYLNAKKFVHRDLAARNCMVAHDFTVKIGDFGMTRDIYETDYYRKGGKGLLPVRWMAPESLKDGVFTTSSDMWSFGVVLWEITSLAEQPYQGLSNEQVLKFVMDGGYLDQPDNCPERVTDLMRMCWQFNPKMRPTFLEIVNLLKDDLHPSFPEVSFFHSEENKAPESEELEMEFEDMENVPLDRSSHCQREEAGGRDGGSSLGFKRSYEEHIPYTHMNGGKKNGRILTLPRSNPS

With `Cc1ccc(-c2c(/C=C(\C#N)C(=O)NC(C)C)n(CCCO)c3ncnc(N)c23)cc1` the remaining binding was 77% (INSR; cell-free assay, competition with immobilised ligand; 1 µM).
The remaining activity of `COC(=O)[C@@]1(C)C=C(C(=O)Nc2cccc(C(=O)Nc3ccc(Nc4nccc(-c5cccnc5)n4)c(C)c3)c2)C(=O)CC1` is reported as 101% (INSR; enzyme activity, inhibitor, radiometric; 1 µM).
`CNC(=O)C[C@H](Cc1ccc(C#N)cc1)NC(=O)c1cc(-c2ccc(CN[C@H](C)c3ccc(C)cc3)o2)ccc1Cl`: “activity vs control” 106% (INSR; enzyme activity, inhibitor; 1 µM).
`COCC12C(=O)NC3C4(C(OC)CC1O)C1CC5(O)C(OC)C(O)C(OC(C)=O)(C1C5OC(=O)c1ccccc1)C3(O)C(OC)C24` (centres unmarked) has a remaining activity of 101% and 106% (INSR; kinase activity, inhibitor, ProQinase kinase profiling; 25 µM; baseline: control).
With `C=CC(=O)Nc1cccc(-c2cnc3[nH]cc(C(=O)NC(C)(C)C)c3n2)c1` the inhibition was 3% (INSR; enzyme activity, inhibitor; 0.1 µM).
The remaining binding of `COc1ccc(NC(=O)Nc2ccc3c(c2)C(=O)N(C(C)CO)CC(C)C(CN(C)Cc2ccc4c(c2)OCO4)O3)cc1` (centres unmarked) is reported as 36% (INSR; binding, competition with immobilised ligand; 10 µM).
`CNC1C[S+]2CC[S+]3CC[S+](C1)[Ru-4]321([N]=C=S)[n]2c3ccc(OC)cc3c3c4c(c5cc(F)c[n+]1c5c32)C(=O)NC4=O` (centres unmarked) gave a remaining binding of 99% (INSR; KinomeScan; 0.1 µM; baseline: untreated).
`Cc1cccc(-c2ccc3nc(NC(=O)C4CCCCC4)nn3c2)c1` has a remaining activity of 115% (INSR; enzyme activity, Dundee kinase panel; 10 µM).
For `CN1CCN(Cc2ccc(NC(=O)c3cccc(C#Cc4cnc(N)c5ncccc45)c3)cc2C(F)(F)F)CC1`, the remaining binding was 84% (INSR; cell-free assay, competition with immobilised ligand; 0.5 µM).
The remaining activity of `Cc1cccc(-c2ccc3nc(NC(=O)C4CCOCC4)nn3c2)c1` is reported as 78% (INSR; enzyme activity, Dundee kinase panel; 10 µM).
With `CNC(=O)C1CCN(c2cc(C)c(F)cc2NC(=O)c2ccc(-c3cc(O)ccc3C)c(C)c2)CC1` the remaining binding was 83% (INSR; binding, competition with immobilised ligand; 1 µM).
For `COc1c(OCCCN2CCOCC2)ccc2c1N=C(NC(=O)c1cnc(N)nc1)N1CCN=C21`, the remaining activity was 81% (INSR; kinase activity, inhibitor; 1 µM; baseline: untreated control).
For `COc1cc(Nc2nc(C)cc(-c3cnn4nc(OC)ccc34)n2)cc(C(F)(F)F)c1`, the remaining activity was 71% (INSR; inhibitor; 1 µM; baseline: control).
With `Nc1ncc2c(n1)-c1c([nH]c3ccc(C4=CCOCC4)cc13)CCC2` the remaining binding was 92% (INSR; binding, competition with immobilised ligand; 1 µM).
For `CN1CC[C@@H](COc2cnc(C#N)cc2-c2ccn3nc(NC(=O)C4CC4)cc3c2)C1`, the inhibition was 1% (Insulin receptor, phosphorylated (INSR, Homo sapiens, UniProt P06213); enzyme activity, inhibitor; 1 µM).
With `Nc1ncc(-c2cc(-c3cnn(CC(F)(F)F)c3)ncc2F)nc1C(=O)NC1CNCC(F)C1` (centres unmarked) the remaining activity was 93.4% (INSR; enzyme activity; 1 µM; baseline: DMSO control).
With `CN1CCN(Cc2ccc(-c3ccc(CO[C@H]4CCC[C@@H]4NC(=O)c4cc(-c5cnn(C)c5)cnc4N)cc3)cc2)CC1` the inhibition was 0% (INSR; enzyme activity, inhibitor; 0.1 µM).

Repeated from above:
For `COc1c(OCCCN2CCOCC2)ccc2c1N=C(NC(=O)c1cnc(N)nc1)N1CCN=C21`, the remaining activity was 81% (INSR; kinase activity, inhibitor; 1 µM; baseline: untreated control).
For `COc1cc(Nc2nc(C)cc(-c3cnn4nc(OC)ccc34)n2)cc(C(F)(F)F)c1`, the remaining activity was 71% (INSR; inhibitor; 1 µM; baseline: control).
